Measurements pooled from the literature.
Parts stem from different laboratories: compare values within a part only. Positions count from the first letter of the parent shown.

Series 1
Target: RNA binding protein fox-1 homolog 2, RRM domain, GST-SBP tag (RBFOX2, Homo sapiens, UniProt O43251-10, residues 100-194)
Technique: RNA Bind-n-Seq
Molecule type: RNA
Matrix: in vitro
Concentration: 365 nM
Notes: natural RNA segment, single round, ends assumed
Reference: no-protein control
Reading: higher = stronger binding
Measurement: RBNS enrichment (R)
Constant ends, left off below: GGGAGUUCUACAGUCCGACGAUC … UGGAAUUCUCGGGUGCCAA
Target sequence (chain): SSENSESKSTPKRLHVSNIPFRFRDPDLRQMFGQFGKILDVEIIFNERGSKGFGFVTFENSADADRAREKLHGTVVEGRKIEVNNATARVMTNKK
Strand = CACAGACACACUGUGUCUUGUGUCUUGUGAGUCCAGCACCUGGUCCCACCCUCAGUCCCCAUGUUAGUCUUGGUUGUGCCUGUCUUUAACCACAGCCUCACAGCUGGUCU; value = 0.779
Strand = CUGGGACCCGAGUAGGAGCUAGGACUAGCCAGGACCCGCAGCCGCCUCGUCACCUCCAGUUGGGUGCCUCUGGGUUCCCACUGGCUCUGCCCAGGUGGGGUGGGGUGGCC; value = 0.201
Strand = CGGUCCACAGGAAGGGCUAGGAGCUGAAUUAAAGAUGAGAGCAUCCCUCCUGCACACUGGGGCUUCCCUUCACCAGGAGCAAAUCACUUCAACCUCCCGUGCCUCGUUUC; value = 0.778
Strand = CCUUUUAUUUUUUCCAAUAAAAAAGCAGUGGGAUGAAAAUUGCUUUGAUAUAUAGCAGGUAACAUUGAAGCUAUUCCAUAGCACUUAACUGUAGUGAAUACUGUGUCACC; value = 0.393
Strand = CGGGUGCCGUGGCUCAUGCCUGUCAUCCCAGCAUUUGGGAGGCUGAGGCAGGCAGAUCACCUGAGGCCAGGAGUUCGAGACCAGCCUGGCUGGCUAGCAUGGUGAGACCG; value = 14
Strand = UAUUUGUAUGCUUCCCAGAGAAGCUCAUUUCAUUACAAAAGGCACAUUUUAAAGCCUGCUGAUAACUGAGGAGGGCUAAUGAGAUAGGUUUGCUCGUCUGUAAUAGUUAU; value = 1.55
Strand = AGGAGACCCGCGUGUGGCACCGCCGCGACGGCAAGUGGCAGAACGUGCACUUCCACUGCUCGGGCGCGCCUGUGGCCCCGCUGCAGUGAAGAGCUGCGCCCUGGUUUCGC; value = 1.77
Strand = AUCCUUUUGUGUUCCAGCCUAGGCUAAGUGUUUGUGAAAGCCAUUUGUGAGUGCUUGGAGUGUUCUUCCUAAUAAACACACUUCAUGUCUUGUGUUGUCUUUUUCACUCA; value = 0.427

Series 2
Target: Histone acetyltransferase KAT6A, winged helix 2, GST fusion (KAT6A, Homo sapiens, UniProt Q92794, residues 85-181)
Technique: protein binding microarray
Molecule type: double-stranded DNA, one strand shown
Matrix: in vitro
Concentration: not given
Notes: 8-mer, flanks averaged, mean of 2 arrays, mostly near background
Reference: not given
Reading: higher = stronger binding
Measurement: E-score
Target sequence (chain): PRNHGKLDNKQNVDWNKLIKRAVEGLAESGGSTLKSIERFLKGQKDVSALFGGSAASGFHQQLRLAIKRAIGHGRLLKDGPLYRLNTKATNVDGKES
Strand = AGTTGGTA; value = -0.048
Strand = CCGACTAC; value = -0.0442
Strand = GGTGCAAA; value = 0.0856
Strand = GAGTGCTA; value = -0.0518
Strand = ATTGGTCG; value = 0.0935
Strand = AAGCCCGT; value = -0.198
Strand = GGGGTTGA; value = -0.0591
Strand = CATCACAC; value = 0.0375
Strand = GTGACTTA; value = -0.138
Strand = TCAACCGA; value = 0.0904
Strand = AGTCCGAA; value = -0.0498
Strand = TATGAGCA; value = 0.117
Strand = ATTTTACG; value = 0.0527
Strand = AGGCGTCC; value = 0.0604
Strand = CTCGGGCA; value = 0.225
Strand = ATGGGTCG; value = -0.102

Series 3
Target: MAFF, bZIP domain (human)
Technique: DHFR protein complementation
Matrix: yeast
Notes: single substitutions, most at no-binding floor
Reference: wild-type JUN-FOS pair
Reading: higher = stronger binding
Measurement: binding fitness
Starting sequence: JUN, bZIP domain (human); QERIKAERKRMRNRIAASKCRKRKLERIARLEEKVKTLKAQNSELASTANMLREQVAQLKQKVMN; partner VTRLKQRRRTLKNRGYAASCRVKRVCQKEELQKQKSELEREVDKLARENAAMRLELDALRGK
Variant = V56Y; value = -1.51 natural log
Variant = A40L; value = -1.47 natural log
Variant = M51S; value = -1.25 natural log
Variant = T37P; value = -1.47 natural log
Variant = R53S; value = -1.54 natural log
Variant = A29P; value = -1.45 natural log
Variant = T37E; value = -1.23 natural log
Variant = E54W; value = -1.35 natural log
Variant = E33T; value = -1.48 natural log
Variant = N42Q; value = -1.04 natural log
Variant = E32L; value = -1.47 natural log
Variant = K34T; value = -1.48 natural log
Variant = A49F; value = -1.46 natural log
Variant = Q55V; value = -1.43 natural log
Variant = A46C; value = -1.51 natural log
Variant = L31R; value = -1.53 natural log
Variant = M51P; value = -1.5 natural log
Variant = R53I; value = -1.55 natural log
Variant = V35Q; value = -1.41 natural log
Variant = K39S; value = -1.3 natural log
Variant = E44A; value = -1.5 natural log
Variant = I28K; value = -1.47 natural log

Series 4
Target: Ras GTPase-activating protein-binding protein 1, full length (G3BP1, Homo sapiens, UniProt Q13283)
Chain of UniProt Q13283 (whole entry, looked up): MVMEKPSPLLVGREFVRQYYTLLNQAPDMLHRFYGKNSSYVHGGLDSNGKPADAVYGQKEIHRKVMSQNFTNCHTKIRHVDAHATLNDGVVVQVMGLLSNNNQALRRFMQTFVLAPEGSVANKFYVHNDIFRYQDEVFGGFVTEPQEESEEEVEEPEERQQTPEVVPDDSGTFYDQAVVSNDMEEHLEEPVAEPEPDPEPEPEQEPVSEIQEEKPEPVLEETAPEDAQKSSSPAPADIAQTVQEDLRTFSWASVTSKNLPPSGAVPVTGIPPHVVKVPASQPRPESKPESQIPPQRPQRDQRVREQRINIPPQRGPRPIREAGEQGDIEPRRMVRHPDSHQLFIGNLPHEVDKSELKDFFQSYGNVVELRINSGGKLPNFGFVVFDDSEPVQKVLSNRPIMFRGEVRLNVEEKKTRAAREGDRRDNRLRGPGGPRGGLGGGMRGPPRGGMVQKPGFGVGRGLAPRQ
Technique: RNA Bind-n-Seq
Molecule type: RNA
Matrix: in vitro
Concentration: 200 nM
Notes: whole 134-nt RNA, ends assumed
With: 150 mM LiCl
Reference: input library
Reading: higher = stronger binding
Measurement: log2 enrichment
Library: 7-deaza-guanosine replaces G
Constant ends, left off below: GGGAGUUCUACAGUCCGACGAUC … UGGAAUUCUCGGGUGUCAAGG
Strand = CACAGACAACACGCACCCACACAGACACAGAGGGCAGGGGUUGGGAUGGGGACAGGGUGCACAGCAGGGCGGGGUAGGACCCCAGCCCCU; value = -0.667
Strand = AGUCCUGUGCUACACAUCGUAUGUACCGAAUCGUGUGUGUGUGUGUGUGUGUGUGUGAAAGUAUUAUGUUACGCCGUUCGGAUCUGCACU; value = -0.559
Strand = CUGUGCUACACAUCGUAUGUACCGAAUCGGGGAAAAAGGGGUUUUUUUGGGGUUUUUGGGGAAAGUAUUAUGUUACGCCGUUCGGAUCUG; value = -1.57
Strand = GCAGGAAGUAAAAACAAAUGGAAAUGCUUCGGAUAGUGGCAGGGGUGGGGGUUGCUAAGGAAAGAAAGGGAUGGGAGUGGGUAAAGAGUU; value = 0.0166
Strand = UAACUUUAGAGGAGGAUCUGAUGGAUAUGGCCGUGGACGUGGAUUUGGGGAUGGCUAUAAUGGGUAUGGAGGAGGACCUGGAGGUGGCAA; value = -0.624
Strand = UGGCCCUGGUGGCAUGCGGGGAGGAAGAGGUGGCCUCAUGGAUCGUGGUGGUCCUGGUGGAAUGUUCAGAGGUGGCCGUGGUGGAGACAG; value = 0.371
Strand = CUCAAGUCCUGUGCUACACAUCGUAUGUACCGAAUCGGUUUGGAAAGGAAAGGAAAGUAUUAUGUUACGCCGUUCGGAUCUGCACUUCCA; value = 0.211
Strand = UCAAGUCCUGUGCUACACAUCGUAUGUACCGAAUCGGCCCCGGCCCCGGCCCCGGAAAGUAUUAUGUUACGCCGUUCGGAUCUGCACUUC; value = -0.135

For quick reference, copied from above (series 3):
Variant = A29P; value = -1.45 natural log
Variant = T37E; value = -1.23 natural log
Variant = E54W; value = -1.35 natural log
Variant = E33T; value = -1.48 natural log
Variant = N42Q; value = -1.04 natural log
Variant = E32L; value = -1.47 natural log
